Assay results collected from several papers.
Every numbered part comes from another study and shows a few of its results, in no order. Positions count from the first letter of the parent shown.

Study 1 — method: RNA Bind-n-Seq; form: RNA; sample: in vitro; concentration: not given; relative to: input RNA pool; reading: higher = stronger binding
Target: RING finger protein unkempt homolog, zinc fingers 1-6, GST-SBP tag (UNK, Homo sapiens, UniProt Q9C0B0, residues 30-357)
Setting: RNA with constant flanks, human and mouse sites, ends assumed
Shared flanks, not repeated: GGGAGUUCUACAGUCCGACGAUC … CAACAGAGGAUUGAGCAUCA
Target sequence (chain): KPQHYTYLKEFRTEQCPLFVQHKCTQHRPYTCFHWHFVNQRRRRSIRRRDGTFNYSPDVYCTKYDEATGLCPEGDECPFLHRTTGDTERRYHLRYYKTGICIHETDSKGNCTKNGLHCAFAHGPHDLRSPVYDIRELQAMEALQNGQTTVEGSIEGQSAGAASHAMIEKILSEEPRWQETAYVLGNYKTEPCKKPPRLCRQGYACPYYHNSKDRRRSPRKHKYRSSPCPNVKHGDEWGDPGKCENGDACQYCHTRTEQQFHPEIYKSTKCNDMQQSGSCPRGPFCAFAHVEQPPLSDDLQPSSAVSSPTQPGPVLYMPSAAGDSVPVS
Oligonucleotide	bound/input enrichment [ratio]
GCCAUCUAUGACAUCUGUCGUAGAAACCUCGAUAUUGAGCGUCCAACCUAUACUAACCUGAAUAGGUUAAUAGGUCAAAUUGUGUCCUCCAUCACUGCUUCCCUGAGAUUUGAUGGAGCC	0.0925
CUAGAGGAGGGCAUGGAUAAUUACAAGAGCUUCCUUGGUGGGGAUUCUCCUUCUAUGGUUGAUUAUCUUACUUGGCCUUGGUUUCAGCGACUGGAAGCAUUGGAGCUCAAGGAGUGUCUA	0.151
UUUCUCCGUCGCCACAAGCGGCCCGGUGGCAUGUGCUAAGGCGGCUUCCGCUGUUUCAGUCUAGAUUUUUUUCUUAACAGUCCCAUUCCAAUUCUUUUGCAAGCAAAGAAACUGAGGCUG	1.33
GAGAUGAAGAAGAAGAUUAACAUGGAGUUGAAGAACAGAGCCCCGGAGGAGGUGACAGAGUUAGUCCUCGAUAAUUGCUUGUGUGUCAAUGGGGAAAUCGAAGGCCUGAAUGACACCUUU	0.212
CAACAGGCUGGCCAUGAUGAAGGGGUUCUGGAUCGUUUGGUAGAUAGGAGGGAACGGCCAUUAGAAGGUGGCCGAACAAAUUCCAAUAACAACAACAGCAAUCCAUGUUCAGAACAAGAU	0.173
AGGAAUCAAGUGCUACCACUUUCUGAUGUGGAUACAACUUCUGCUACAGAUAUUCAAAGAGUAGCUGUGCUAUGUGUUUCCAGAUCUGCUUAUUGUUUGGGUUCAAGCCACCCCAGAGGA	0.0957
CUCAAGUCACUCAUCUAAACGUGAGACUGUCUGCUCCACGCCAGGUUGGUUUUAUUGUUUUGUUUUUAAAGAGAGAAUACUUAAUUUUUACUUUAAAUAAAAACUACUUCUGACGGAAAA	0.125
UUGUCCCCAGGUGGGGGGAAGCAGGGGAGAGAAAAUGGUAGCCAUUUUUACAUUGUUUUGUAUAGUAUUUAUUGAUUCAGGAAACAAACACAAAAUUCUGAAUAAAAUGACUUGGAAACU	1.17

Study 2 — target: XBP1, bZIP domain (human); method: DHFR protein complementation; sample: yeast; relative to: wild-type JUN-FOS pair; reading: higher = stronger binding
Setting: single substitutions, most at no-binding floor
Starting sequence: JUN, bZIP domain (human); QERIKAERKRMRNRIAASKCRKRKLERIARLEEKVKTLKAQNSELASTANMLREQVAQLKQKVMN; partner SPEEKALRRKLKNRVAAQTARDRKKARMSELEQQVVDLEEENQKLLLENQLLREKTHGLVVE
Substitution	binding fitness [natural log]
E33R	-1.17
M51G	-1.14
A29F	-1.32
A46R	-0.168
V35H	-1.46
E54D	-1.15
E32L	-1.21
V56C	-0.697
T48G	-1.41
E54W	-1.44
A57Q	-0.792
M51P	-1.48
K39P	-1.51
V35L	-0.852
A46V	-0.657
N42I	-1.4
E44F	-1.24

Study 3 — method: RNA Bind-n-Seq; form: RNA; sample: in vitro; concentration: 365 nM; relative to: no-protein control; reading: higher = stronger binding
Target: RNA binding protein fox-1 homolog 2, RRM domain, GST-SBP tag (RBFOX2, Homo sapiens, UniProt O43251-10, residues 100-194)
Setting: natural RNA segment, single round, ends assumed
Shared flanks, not repeated: GGGAGUUCUACAGUCCGACGAUC … UGGAAUUCUCGGGUGCCAA
Construct (chain): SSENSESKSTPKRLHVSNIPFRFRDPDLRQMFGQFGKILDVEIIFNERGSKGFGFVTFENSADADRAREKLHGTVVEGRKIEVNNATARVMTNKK
Oligonucleotide	RBNS enrichment (R)
GCUGUCACUGAAAUGAACUUGAUCUUGAUCUGCUUUGAUAUGGGGACAGAAUCCCCGACUGCACUAUUGAGGGAGUUUCAGAAGAGAAGGAAGAGGUGCUGGAAGGAUGC	0.714
UGGUGGGAAGCGUCUGUCCGUUUACUCCAAGGUGGGGUCUUUGUGAGAGUGAGCUGUAGGUGUGCGGGACCGGUACAGAAAGGCGUUCUUCGAGGUGGAUCACAGAGGCU	1.12
CAUGGUCCCUUGUUAGUGUUGUGCCAAAGGCCUUGGGUCAGUUCUCUCAGCUUCCAUAUGGAAGUGAGGAAGGGACCUGUGCCUAUUAGCCCUCUUGAUUCUCACCUGAU	0.452
CACCAUUCAGUCUCCCCCUUUUCCUCUGUUUUUACAAUAAAGAAAGCACAUUUUACCAUUGCUAUUGGGAGGAAGCAGAAGGCAGAUUGGAAAGAACAGCGAGUAAGUGC	0.376
GAUGAGGACAUCCUCUUUGUCUACCUGGACAGCUGACAGCAGGAGCCUGGCAUGCCAGGUCCUCAGACCCUAUGUUCUAUCUCAGCCAGGCCCACUCAGGAUGCCCAUGC	0.355
AGCCGAGCCCUUGGCCCUAGCCCUUGCUGCGCAGAACAGCUUGCUGGCAGCUGGCAUCGUGUCGCUUUAUCUGCCCCCGCACAGUUUGCUUUGUACGUCUGCCAAGAAUC	0.794
GCUUUUGUUGGUUCCGCCCGUGGAGACGACGAUAGUGUUUCUGUAUAAUAAAGUGUCUGCCGGCUCGCGGGCCAGGAUCCUCUCGGUGGGAUGGGCACCACAGACAGGAG	0.478
CACUUGCCCACUCUUGUUUACUGCCUUGUAUUCUAGUUAUUUGUGUAUUUGUCUCCCUCACUAGAUUAUACGCUCCUUGUGGGCAGGGACUGUGUCUUUUUUCAUCUUUG	0.628

Study 4 — target: CCNB2, cyclin fold, Cln2 fusion (human); method: yeast growth competition, sequencing; sample: yeast; setting: weak parent motif; relative to: not given; reading: higher = stronger binding
Starting sequence: WEE1 docking peptide (human); HKTFRKLRLFDTP; partner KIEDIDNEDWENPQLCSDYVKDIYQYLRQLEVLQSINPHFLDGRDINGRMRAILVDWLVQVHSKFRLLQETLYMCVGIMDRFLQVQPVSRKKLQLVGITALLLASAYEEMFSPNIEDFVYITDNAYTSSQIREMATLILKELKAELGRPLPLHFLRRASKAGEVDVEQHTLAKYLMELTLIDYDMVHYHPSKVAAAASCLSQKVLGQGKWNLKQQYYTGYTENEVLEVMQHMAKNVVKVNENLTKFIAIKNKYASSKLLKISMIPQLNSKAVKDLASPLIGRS
Substitution	normalised enrichment score
HKTFRKLRNFDTP [L9N]	0.415
HKTFRKLRLFTTP [D11T]	0.683
HKRFRKLRLFDTP [T3R]	0.7
HKTFRKWRLFDTP [L7W]	1.13
HPTFRKLRLFDTP [K2P]	0.283
HKTFRMLRLFDTP [K6M]	0.24
HKTFRKLRLGDTP [F10G]	0.205
HKTFRKLRLFDDP [T12D]	1.18
HQTFRKLRLFDTP [K2Q]	0.831
HKTPRKLRLFDTP [F4P]	0.509
HKCFRKLRLFDTP [T3C]	0.258
HKTFRKLRLFDIP [T12I]	1.02
HKTFRDLRLFDTP [K6D]	0.282
HKTFRKLRLFDTK [P13K]	0.103
HKTFRKLRWFDTP [L9W]	1.01
HKTFRKCRLFDTP [L7C]	1.31
HKTGRKLRLFDTP [F4G]	0.266
NKTFRKLRLFDTP [H1N]	0.716
HKTFRKRRLFDTP [L7R]	0.844
HDTFRKLRLFDTP [K2D]	0.177
HKTFRKSRLFDTP [L7S]	0.193
HKTFRKLRLFQTP [D11Q]	1.76
HKTFRKLLLFDTP [R8L]	0.692
HFTFRKLRLFDTP [K2F]	-0.236
HLTFRKLRLFDTP [K2L]	0.524

A few entries again (study 1):
Oligonucleotide	bound/input enrichment [ratio]
UUGUCCCCAGGUGGGGGGAAGCAGGGGAGAGAAAAUGGUAGCCAUUUUUACAUUGUUUUGUAUAGUAUUUAUUGAUUCAGGAAACAAACACAAAAUUCUGAAUAAAAUGACUUGGAAACU	1.17
CAACAGGCUGGCCAUGAUGAAGGGGUUCUGGAUCGUUUGGUAGAUAGGAGGGAACGGCCAUUAGAAGGUGGCCGAACAAAUUCCAAUAACAACAACAGCAAUCCAUGUUCAGAACAAGAU	0.173
AGGAAUCAAGUGCUACCACUUUCUGAUGUGGAUACAACUUCUGCUACAGAUAUUCAAAGAGUAGCUGUGCUAUGUGUUUCCAGAUCUGCUUAUUGUUUGGGUUCAAGCCACCCCAGAGGA	0.0957
GCCAUCUAUGACAUCUGUCGUAGAAACCUCGAUAUUGAGCGUCCAACCUAUACUAACCUGAAUAGGUUAAUAGGUCAAAUUGUGUCCUCCAUCACUGCUUCCCUGAGAUUUGAUGGAGCC	0.0925
CUAGAGGAGGGCAUGGAUAAUUACAAGAGCUUCCUUGGUGGGGAUUCUCCUUCUAUGGUUGAUUAUCUUACUUGGCCUUGGUUUCAGCGACUGGAAGCAUUGGAGCUCAAGGAGUGUCUA	0.151
GAGAUGAAGAAGAAGAUUAACAUGGAGUUGAAGAACAGAGCCCCGGAGGAGGUGACAGAGUUAGUCCUCGAUAAUUGCUUGUGUGUCAAUGGGGAAAUCGAAGGCCUGAAUGACACCUUU	0.212
UUUCUCCGUCGCCACAAGCGGCCCGGUGGCAUGUGCUAAGGCGGCUUCCGCUGUUUCAGUCUAGAUUUUUUUCUUAACAGUCCCAUUCCAAUUCUUUUGCAAGCAAAGAAACUGAGGCUG	1.33
CUCAAGUCACUCAUCUAAACGUGAGACUGUCUGCUCCACGCCAGGUUGGUUUUAUUGUUUUGUUUUUAAAGAGAGAAUACUUAAUUUUUACUUUAAAUAAAAACUACUUCUGACGGAAAA	0.125
